Measurements collected from several papers.
Compare with care: the assays were run in different laboratories.
CTSL: Procathepsin L (CTSL, Homo sapiens, UniProt P07711)
Sequence of UniProt P07711 (whole entry, looked up): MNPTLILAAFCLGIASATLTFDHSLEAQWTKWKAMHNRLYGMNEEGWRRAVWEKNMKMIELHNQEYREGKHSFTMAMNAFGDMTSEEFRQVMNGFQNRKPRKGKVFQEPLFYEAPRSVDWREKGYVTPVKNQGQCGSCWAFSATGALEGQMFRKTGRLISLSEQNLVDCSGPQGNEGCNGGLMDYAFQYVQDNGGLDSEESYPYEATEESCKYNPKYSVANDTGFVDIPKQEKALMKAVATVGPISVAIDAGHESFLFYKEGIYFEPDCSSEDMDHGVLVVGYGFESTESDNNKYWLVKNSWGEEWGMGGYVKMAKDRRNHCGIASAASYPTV
Sequence of UniProt P10721 (whole entry, unmodified, looked up): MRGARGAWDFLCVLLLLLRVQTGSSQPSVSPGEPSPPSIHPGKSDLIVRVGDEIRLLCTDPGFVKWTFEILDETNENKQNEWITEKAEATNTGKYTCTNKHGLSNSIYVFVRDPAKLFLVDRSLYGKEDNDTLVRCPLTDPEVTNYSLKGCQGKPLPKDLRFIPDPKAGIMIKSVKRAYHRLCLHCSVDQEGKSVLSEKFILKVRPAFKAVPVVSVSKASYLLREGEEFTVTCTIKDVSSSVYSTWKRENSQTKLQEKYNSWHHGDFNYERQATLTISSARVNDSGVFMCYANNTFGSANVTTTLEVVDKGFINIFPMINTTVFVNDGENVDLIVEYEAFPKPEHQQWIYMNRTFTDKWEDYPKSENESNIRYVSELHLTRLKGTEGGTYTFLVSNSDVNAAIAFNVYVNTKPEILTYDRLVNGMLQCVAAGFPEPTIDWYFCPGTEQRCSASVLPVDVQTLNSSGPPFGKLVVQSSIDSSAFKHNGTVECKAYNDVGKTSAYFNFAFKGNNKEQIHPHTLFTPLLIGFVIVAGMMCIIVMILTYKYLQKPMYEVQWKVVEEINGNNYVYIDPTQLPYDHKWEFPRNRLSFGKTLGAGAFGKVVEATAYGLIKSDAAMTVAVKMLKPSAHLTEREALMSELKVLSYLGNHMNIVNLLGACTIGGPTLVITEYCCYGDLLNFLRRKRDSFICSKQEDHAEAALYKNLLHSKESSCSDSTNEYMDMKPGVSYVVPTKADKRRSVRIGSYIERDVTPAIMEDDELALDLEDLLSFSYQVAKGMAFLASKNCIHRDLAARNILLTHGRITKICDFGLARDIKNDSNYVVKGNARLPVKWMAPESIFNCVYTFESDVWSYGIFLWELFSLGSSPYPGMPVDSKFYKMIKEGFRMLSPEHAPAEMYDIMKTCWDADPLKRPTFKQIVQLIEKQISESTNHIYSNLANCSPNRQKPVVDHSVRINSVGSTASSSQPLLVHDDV
Sequence of UniProt Q9H0K1 (whole entry, looked up): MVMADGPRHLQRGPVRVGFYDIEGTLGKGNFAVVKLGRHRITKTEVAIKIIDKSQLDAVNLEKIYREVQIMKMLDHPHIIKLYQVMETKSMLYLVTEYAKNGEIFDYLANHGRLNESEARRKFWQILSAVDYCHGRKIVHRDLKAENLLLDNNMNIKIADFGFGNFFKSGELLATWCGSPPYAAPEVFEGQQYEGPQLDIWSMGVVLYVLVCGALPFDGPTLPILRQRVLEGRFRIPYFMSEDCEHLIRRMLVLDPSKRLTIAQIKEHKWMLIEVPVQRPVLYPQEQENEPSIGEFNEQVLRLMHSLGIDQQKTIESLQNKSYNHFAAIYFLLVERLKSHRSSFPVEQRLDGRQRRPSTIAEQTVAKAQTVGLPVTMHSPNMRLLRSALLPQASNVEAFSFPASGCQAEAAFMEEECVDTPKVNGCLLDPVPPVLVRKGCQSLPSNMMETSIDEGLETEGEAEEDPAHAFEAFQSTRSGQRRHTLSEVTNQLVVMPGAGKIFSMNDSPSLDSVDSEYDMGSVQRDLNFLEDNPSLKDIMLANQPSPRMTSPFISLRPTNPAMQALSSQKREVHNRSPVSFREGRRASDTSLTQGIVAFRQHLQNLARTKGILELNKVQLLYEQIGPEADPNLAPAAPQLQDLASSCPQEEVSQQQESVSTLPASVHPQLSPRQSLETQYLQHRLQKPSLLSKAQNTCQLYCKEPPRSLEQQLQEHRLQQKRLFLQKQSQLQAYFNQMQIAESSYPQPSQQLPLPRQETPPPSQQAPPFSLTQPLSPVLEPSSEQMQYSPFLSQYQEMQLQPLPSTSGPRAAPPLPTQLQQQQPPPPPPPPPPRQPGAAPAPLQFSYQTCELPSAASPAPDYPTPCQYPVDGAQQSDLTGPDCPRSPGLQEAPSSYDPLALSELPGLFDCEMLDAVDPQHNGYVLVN
Sequence of UniProt Q70EK9 (whole entry, looked up): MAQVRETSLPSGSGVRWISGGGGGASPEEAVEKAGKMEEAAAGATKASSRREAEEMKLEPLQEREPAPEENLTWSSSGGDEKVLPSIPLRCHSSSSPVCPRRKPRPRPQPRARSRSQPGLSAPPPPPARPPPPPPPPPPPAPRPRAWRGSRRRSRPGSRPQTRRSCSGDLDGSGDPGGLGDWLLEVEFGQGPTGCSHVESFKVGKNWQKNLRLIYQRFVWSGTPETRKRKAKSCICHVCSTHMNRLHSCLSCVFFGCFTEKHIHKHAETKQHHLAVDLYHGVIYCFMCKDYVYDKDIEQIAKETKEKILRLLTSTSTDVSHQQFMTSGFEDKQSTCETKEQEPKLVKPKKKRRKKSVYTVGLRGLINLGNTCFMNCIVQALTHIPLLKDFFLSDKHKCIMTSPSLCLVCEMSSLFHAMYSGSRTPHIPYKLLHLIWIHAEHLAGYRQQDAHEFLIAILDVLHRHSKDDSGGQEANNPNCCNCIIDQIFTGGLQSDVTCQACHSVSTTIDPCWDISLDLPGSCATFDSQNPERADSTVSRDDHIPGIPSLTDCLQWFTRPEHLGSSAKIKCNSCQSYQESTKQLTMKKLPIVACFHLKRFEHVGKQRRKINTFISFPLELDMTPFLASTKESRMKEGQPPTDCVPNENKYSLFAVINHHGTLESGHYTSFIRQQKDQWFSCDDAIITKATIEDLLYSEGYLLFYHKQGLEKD
Sequence of UniProt Q9H8M2 (whole entry, unmodified, looked up): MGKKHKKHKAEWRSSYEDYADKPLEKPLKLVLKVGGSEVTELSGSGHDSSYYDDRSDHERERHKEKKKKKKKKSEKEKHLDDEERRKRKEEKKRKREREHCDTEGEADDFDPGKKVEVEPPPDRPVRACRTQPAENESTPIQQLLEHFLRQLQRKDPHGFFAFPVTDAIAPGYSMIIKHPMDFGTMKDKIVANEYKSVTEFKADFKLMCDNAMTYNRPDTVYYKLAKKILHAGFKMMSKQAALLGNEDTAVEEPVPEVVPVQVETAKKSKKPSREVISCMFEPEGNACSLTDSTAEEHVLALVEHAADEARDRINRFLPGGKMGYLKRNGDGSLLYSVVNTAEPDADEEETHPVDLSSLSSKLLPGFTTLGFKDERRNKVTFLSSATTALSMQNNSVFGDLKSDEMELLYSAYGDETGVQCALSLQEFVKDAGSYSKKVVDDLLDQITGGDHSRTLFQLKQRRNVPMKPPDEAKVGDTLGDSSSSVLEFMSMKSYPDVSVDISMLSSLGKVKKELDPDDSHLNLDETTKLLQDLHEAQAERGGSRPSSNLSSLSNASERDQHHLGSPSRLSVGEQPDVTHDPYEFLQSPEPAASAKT
Sequence of UniProt P49841 (whole entry, looked up): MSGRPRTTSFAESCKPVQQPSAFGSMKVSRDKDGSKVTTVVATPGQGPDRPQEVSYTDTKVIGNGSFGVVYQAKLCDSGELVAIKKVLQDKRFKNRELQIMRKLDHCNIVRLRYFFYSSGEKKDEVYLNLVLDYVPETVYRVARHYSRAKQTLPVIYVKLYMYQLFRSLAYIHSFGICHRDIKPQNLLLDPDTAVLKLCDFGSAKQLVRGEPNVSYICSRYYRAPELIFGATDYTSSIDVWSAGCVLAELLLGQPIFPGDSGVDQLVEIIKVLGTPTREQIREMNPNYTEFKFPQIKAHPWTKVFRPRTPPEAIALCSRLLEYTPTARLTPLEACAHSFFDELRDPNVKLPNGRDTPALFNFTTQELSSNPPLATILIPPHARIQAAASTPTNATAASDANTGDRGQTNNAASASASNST
Sequence of UniProt P35462 (whole entry, looked up): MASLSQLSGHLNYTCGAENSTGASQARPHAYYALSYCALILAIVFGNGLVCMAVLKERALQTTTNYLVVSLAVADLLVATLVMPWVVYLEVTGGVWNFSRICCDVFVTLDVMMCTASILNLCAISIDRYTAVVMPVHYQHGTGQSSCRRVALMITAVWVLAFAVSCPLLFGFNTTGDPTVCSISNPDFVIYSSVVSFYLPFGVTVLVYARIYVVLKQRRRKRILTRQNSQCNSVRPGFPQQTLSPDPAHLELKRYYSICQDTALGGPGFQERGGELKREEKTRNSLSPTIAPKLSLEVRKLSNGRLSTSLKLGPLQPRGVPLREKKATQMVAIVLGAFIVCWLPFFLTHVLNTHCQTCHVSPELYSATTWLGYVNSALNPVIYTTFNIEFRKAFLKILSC
Sequence of UniProt Q00535 (whole entry, looked up): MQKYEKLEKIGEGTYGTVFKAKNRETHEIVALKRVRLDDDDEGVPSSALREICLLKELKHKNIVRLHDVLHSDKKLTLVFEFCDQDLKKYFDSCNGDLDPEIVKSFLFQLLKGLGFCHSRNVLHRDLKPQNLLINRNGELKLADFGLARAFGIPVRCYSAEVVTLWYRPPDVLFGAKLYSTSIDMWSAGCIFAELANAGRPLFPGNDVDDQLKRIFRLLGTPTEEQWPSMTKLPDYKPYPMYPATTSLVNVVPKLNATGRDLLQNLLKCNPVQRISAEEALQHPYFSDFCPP

| Compound | tested on | assay | setting | quantity | value |
| --- | --- | --- | --- | --- | --- |
| CC[C@H](C)[C@H](NC(=O)[C@H](CCC(N)=O)NC(=O)[C@H](CC(C)C)NC(=O)[C@H](CCSC)NC(=O)[C@H](CCCCN)NC(=O)[C@H](CO)NC(=O)[C@H](CO)NC(=O)[C@H](CCSC)NC(=O)[C@H](CC(C)C)NC(=O)[C@H](CC(N)=O)NC(=O)[C@@H](NC(=O)[C@@H](NC(=O)[C@H](CO)NC(=O)[C@H](CC(C)C)NC(=O)[C@H](CS)NC(=O)[C@H](CCCNC(=N)N)NC(=O)[C@H](CC(=O)O)NC(=O)[C@H](Cc1c[nH]c2ccccc12)NC(=O)[C@H](Cc1ccccc1)NC(=O)[C@H](C)NC(=O)[C@H](CCC(=O)O)NC(=O)[C@@H](N)CCCCN)C(C)C)[C@@H](C)CC)C(=O)N[C@@H](CC(N)=O)C(=O)N[C@@H](C)C(=O)O | Cyclin-dependent kinase 5, with p35 (CDK5, Homo sapiens, UniProt Q00535) | enzyme activity, inhibitor, radiometric | 100 µM | inhibition | 29% |
| COc1cc(OC)cc(-c2cc(C(C)=O)n3ccccc23)c1 | BRD9 (Homo sapiens, UniProt Q9H8M2) | thermal stability, DSF | 200 µM | ΔTm | 6.5 to 7.3 °C |
| Nc1ncnc2occ(-c3ccc(NC(=O)Nc4cc(C(F)(F)F)ccc4F)cc3)c12 | KIT (Homo sapiens, UniProt P10721, L576P) | cell-free assay, inhibitor | 20 µM | remaining signal | 0% |
| CCCCC(=O)Nc1ccc(-c2ccc3ncn(CCC)c(=O)c3c2)cn1 | EPHA8 (Homo sapiens, UniProt P29322) | binding, competition with immobilised ligand | 0.5 µM | remaining binding | 100% |
| C1=C/COCc2cc(ccc2OCCN2CCCC2)Nc2nccc(n2)-c2cccc(c2)COC/1 | PRKG1 (Homo sapiens, UniProt Q13976) | binding | 0.1 µM | remaining binding | 100% |
| CC(=O)Oc1cccc2c1C(=O)c1c(OC(C)=O)cc(C(=O)O)cc1C2=O | USP51 (Homo sapiens, UniProt Q70EK9) | enzyme activity, inhibitor | 5 µM | inhibition | 32% |
| Cc1cc([C@@H](C)Nc2ccccc2C(=O)O)c2nc(N3CCC(F)(F)CC3)c(C#N)c(=O)n2c1 | GSK3B (Homo sapiens, UniProt P49841) | binding, competition with immobilised ligand | 1 µM | remaining binding | 100% |
| NCc1ccc(O)cc1 | CTSL | enzyme activity, inhibitor | 100 µM | remaining activity | 110% |
| COc1cc(-c2cncc3c2CN(C)Cc2cc(N4CCNCC4)ccc2-3)cc(OC)c1OC | FER (Homo sapiens, UniProt P16591) | enzyme activity, inhibitor | 1 µM | remaining activity | 111% |
| Cc1[nH]c(C)c(S(=O)(=O)Nc2cc(Cl)c(Cl)cc2Cl)c1C(=O)N1CCC(F)(F)C1 | DRD3 (Homo sapiens, UniProt P35462) | β-arrestin recruitment, agonist | 90 min | Emax | 91% |
| COc1ccc(C[C@H](N)C(=O)N[C@H]2[C@@H](O)[C@H](n3cnc4c(N(C)C)ncnc43)O[C@@H]2CO)cc1 | CTSL | enzyme activity, inhibitor | 100 µM | remaining activity | 131% |
| CNc1ncc2c(/C=C/C(=O)N3CCC(OC)CC3)nn(Cc3cccc(C(F)(F)F)c3)c2n1 | SIK2 (Homo sapiens, UniProt Q9H0K1) | enzyme activity, inhibitor, radiometric | 1 µM | remaining activity | 101% |
| C=CC(=O)N1CCC(COCC(=O)N2CCN(c3nc(-c4cnc(N)nc4C(F)F)nc(N4CCOC[C@@H]4C)n3)CC2)CC1 | KIT (Homo sapiens, UniProt P10721, V559D) | binding, competition with immobilised ligand | 1 µM | remaining binding | 95% |
| CC(=C/C=C/C=C(C)/C=C/C=C(\C)C(=O)OC1OC(COC2OC(CO)C(O)C(O)C2O)C(O)C(O)C1O)/C=C/C=C(/C)C(=O)OC1OC(COC2OC(CO)C(O)C(O)C2O)C(O)C(O)C1O (centres unmarked) | CTSL | enzyme activity, inhibitor | 100 µM | remaining activity | 54.1% |
| Cc1cccc(N(O)N=Nc2ccc(S(=O)(=O)Nc3nccs3)cc2)c1 | – | ABTS scavenging | 180 µg/mL | inhibition | 64.2% |
| CC1OC(Oc2c(-c3ccc(O)c(O)c3)oc3cc(O)cc(O)c3c2=O)C(O)C(O)C1O (centres unmarked) | CTSL | enzyme activity, inhibitor | 100 µM | remaining activity | 73.5% |
| CCN(O)N=Nc1ccc(S(=O)(=O)Nc2onc(C)c2C)cc1 | – | ABTS scavenging | 240 µg/mL | inhibition | 50.7% |
